Experimental data of several laboratories.
Parts stem from different laboratories: compare values within a part only. Positions count from the first letter of the parent shown.

Sample 1
Target: MAFG, bZIP domain (human)
Technique: DHFR protein complementation
Sample: yeast
Setting: single substitutions, most at no-binding floor
Reference: wild-type JUN-FOS pair
Direction: higher = stronger binding
Endpoint: binding fitness
Parent: JUN, bZIP domain (human); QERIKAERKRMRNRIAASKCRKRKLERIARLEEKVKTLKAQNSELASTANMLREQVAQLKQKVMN; partner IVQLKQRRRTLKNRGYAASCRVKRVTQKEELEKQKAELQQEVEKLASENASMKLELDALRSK
E44I: -1.45 natural log
T48L: -1.48 natural log
T37V: -1.4 natural log
S43P: -1.52 natural log
T37H: -1.41 natural log
E44A: -1.47 natural log
L59W: -1.33 natural log
Q55R: -1.21 natural log

Sample 2
Target: Prothrombin, mature alpha-thrombin (F2, Homo sapiens, UniProt P00734)
Technique: aptamer microarray, sandwich
Molecule type: DNA with 2'F-ANA
Sample: in vitro
Concentration: 200 nM
Setting: whole 15-mer aptamer, many near background
With: Cy3 exosite-II aptamer, 400 nM
Direction: higher = stronger binding
Endpoint: mean fluorescence intensity
Sequence: GGTTGGTGTGGTTGG
2'F-ANA at 2 3 5 13: 86.2 a.u.
2'F-ANA at 4 6 7 8 10 11 12: 122 a.u.
2'F-ANA at 1 2 4 5 7 8 9 13 15: 64.4 a.u.
2'F-ANA at 1 6 7 8 10 11: 58 a.u.
2'F-ANA at 1 3 5 6 8 9 10 11 12 14: 49.5 a.u.
2'F-ANA at 1 2 6 8 10 11 12 14 15: 52.2 a.u.
2'F-ANA at 2 5 7 9 10 12 14 15: 203 a.u.
2'F-ANA at 1 2 7 8 11 12 13 15: 261 a.u.

Further values, each from its own experiment
CCOCCn1cc(C(=O)Nc2ccc(-n3nc(-c4cccnc4)cc3C(F)(F)F)cn2)ccc1=O
inhibition (D(1B) dopamine receptor (DRD5, Homo sapiens, UniProt P21918); binding, radioligand binding; 10 µM): -18.1%

SSLRYGNVL
binding (HLA class I histocompatibility antigen, A alpha chain, allele A*25:01 (Homo sapiens, UniProt P04439); peptide-MHC binding; peptide; concentration not given): inactive

A few entries again (sample 2):
2'F-ANA at 2 3 5 13: 86.2 a.u.
